Published values from different studies.
Protocols differ between the studies behind these lines. Numbers after ± are the reported error.
lecA: PA-I galactophilic lectin (lecA, Pseudomonas aeruginosa, UniProt Q05097)
Sequence of UniProt Q05097 (whole entry, looked up): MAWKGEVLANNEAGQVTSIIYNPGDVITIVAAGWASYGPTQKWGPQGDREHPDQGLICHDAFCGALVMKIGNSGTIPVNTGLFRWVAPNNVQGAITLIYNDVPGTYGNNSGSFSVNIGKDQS
Complement C3: Complement C3 (Homo sapiens, UniProt P01024)
Sequence of UniProt P01024 (whole entry, looked up): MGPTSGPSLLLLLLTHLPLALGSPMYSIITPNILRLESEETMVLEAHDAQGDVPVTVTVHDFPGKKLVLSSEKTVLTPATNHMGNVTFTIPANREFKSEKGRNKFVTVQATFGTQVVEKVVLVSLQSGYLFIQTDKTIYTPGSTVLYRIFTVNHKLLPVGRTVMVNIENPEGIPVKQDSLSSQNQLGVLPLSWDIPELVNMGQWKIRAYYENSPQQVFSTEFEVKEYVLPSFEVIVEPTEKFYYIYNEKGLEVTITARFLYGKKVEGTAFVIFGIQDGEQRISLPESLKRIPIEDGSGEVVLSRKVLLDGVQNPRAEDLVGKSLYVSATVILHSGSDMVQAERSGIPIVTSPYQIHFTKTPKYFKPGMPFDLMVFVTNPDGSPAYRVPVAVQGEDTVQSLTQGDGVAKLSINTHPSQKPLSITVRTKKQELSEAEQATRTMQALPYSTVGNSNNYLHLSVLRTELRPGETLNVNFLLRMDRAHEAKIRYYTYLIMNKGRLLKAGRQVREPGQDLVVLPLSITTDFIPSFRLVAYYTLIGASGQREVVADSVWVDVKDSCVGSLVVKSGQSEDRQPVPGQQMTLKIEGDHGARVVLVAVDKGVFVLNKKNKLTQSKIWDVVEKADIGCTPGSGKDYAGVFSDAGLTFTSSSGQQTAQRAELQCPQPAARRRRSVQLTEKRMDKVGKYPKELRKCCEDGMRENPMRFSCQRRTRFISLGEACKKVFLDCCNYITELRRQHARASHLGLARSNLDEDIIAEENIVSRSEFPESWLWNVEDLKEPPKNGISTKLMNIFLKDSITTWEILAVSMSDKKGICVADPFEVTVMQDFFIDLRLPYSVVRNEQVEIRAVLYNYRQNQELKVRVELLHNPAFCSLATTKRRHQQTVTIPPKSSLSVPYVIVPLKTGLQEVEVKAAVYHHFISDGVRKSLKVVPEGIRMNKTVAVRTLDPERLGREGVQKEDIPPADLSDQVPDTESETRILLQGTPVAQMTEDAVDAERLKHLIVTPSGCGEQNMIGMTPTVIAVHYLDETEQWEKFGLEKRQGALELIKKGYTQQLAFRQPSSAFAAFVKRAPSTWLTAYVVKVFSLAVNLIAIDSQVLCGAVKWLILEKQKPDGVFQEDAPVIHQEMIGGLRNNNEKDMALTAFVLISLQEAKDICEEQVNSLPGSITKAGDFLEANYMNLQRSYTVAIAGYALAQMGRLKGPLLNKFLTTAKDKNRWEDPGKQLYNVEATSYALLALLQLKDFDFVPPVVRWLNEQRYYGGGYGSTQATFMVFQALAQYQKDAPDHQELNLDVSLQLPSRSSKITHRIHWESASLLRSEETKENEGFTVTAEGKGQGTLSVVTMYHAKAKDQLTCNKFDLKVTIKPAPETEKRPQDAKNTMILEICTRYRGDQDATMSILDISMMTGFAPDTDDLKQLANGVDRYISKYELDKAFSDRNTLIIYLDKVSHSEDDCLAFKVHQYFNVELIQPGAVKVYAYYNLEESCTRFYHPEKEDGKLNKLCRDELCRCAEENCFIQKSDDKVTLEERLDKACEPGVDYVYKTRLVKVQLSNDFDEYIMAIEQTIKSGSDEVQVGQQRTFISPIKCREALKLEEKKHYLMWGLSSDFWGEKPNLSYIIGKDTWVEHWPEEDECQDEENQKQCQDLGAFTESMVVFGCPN
Histone chaperone ASF1A: Histone chaperone ASF1A (Homo sapiens, UniProt Q9Y294)
Sequence of UniProt Q9Y294 (whole entry, looked up): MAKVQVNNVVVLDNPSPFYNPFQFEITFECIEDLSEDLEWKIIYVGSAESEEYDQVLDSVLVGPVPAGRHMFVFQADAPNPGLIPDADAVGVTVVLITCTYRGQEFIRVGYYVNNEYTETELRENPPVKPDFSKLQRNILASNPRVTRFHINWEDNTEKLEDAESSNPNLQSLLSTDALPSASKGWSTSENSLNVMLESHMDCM
Complement C3 C3b fragment: Complement C3, C3b fragment (Homo sapiens, UniProt P01024)
Sequence of UniProt Q00194 (whole entry, looked up): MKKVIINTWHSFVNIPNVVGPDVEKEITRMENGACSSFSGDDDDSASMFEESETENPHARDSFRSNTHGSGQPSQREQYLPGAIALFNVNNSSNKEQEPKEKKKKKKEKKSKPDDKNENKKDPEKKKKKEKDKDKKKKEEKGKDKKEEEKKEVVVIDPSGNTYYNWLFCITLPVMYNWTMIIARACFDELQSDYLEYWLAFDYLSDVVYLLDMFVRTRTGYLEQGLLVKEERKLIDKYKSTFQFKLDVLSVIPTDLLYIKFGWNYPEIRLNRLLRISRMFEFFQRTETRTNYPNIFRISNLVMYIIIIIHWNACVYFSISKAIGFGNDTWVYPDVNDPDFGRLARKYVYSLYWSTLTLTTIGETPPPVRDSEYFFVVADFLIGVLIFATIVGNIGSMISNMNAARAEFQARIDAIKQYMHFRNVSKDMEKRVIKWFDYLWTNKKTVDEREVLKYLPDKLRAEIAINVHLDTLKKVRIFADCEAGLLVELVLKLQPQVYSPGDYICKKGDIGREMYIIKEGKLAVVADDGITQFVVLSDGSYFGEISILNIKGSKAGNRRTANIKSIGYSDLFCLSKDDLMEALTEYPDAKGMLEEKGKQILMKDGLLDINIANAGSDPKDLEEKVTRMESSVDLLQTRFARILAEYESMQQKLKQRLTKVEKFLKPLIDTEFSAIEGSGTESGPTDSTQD
Sequence of UniProt P16234 (whole entry, looked up): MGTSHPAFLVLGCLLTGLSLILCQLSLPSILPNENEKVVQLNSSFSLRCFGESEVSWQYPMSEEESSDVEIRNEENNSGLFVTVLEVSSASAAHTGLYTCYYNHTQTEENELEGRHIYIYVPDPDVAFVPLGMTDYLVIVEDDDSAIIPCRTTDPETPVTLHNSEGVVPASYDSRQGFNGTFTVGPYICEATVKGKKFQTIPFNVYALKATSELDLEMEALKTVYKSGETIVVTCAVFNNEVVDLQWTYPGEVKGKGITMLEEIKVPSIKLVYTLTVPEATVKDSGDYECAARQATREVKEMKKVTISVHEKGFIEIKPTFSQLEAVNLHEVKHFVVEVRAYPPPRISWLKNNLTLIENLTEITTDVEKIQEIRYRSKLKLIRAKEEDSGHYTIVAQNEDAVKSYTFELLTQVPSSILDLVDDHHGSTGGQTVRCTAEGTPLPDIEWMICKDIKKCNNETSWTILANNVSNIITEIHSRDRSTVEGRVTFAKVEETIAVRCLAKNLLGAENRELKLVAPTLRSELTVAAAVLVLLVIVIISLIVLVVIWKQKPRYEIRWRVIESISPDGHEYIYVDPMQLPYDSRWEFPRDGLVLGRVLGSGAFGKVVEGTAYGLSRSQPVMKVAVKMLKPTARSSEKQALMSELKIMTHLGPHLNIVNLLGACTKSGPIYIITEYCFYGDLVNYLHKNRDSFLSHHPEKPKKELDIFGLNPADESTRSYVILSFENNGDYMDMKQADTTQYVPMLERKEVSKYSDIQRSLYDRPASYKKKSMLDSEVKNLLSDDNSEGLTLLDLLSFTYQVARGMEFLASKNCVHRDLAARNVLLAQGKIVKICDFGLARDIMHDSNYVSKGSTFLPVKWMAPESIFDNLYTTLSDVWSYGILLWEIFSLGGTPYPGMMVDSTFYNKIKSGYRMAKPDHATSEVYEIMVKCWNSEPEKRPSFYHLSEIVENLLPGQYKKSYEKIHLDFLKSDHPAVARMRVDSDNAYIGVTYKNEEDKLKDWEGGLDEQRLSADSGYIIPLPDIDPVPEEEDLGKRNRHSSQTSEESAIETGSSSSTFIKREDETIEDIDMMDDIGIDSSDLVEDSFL
Sequence of UniProt P21397 (whole entry, looked up): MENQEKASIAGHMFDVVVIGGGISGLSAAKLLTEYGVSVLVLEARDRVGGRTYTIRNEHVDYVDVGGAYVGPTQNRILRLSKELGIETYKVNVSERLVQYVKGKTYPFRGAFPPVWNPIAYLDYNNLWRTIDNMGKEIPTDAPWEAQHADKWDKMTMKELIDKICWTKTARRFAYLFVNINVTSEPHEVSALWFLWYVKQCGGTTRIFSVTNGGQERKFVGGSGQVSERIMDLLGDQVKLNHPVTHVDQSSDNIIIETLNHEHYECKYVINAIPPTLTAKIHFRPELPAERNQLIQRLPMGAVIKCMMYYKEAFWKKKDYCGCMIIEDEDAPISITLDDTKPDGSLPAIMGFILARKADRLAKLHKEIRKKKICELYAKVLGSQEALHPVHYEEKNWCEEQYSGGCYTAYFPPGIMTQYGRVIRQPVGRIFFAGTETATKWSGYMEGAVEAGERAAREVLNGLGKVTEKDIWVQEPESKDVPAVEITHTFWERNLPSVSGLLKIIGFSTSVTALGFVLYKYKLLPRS
Sequence of UniProt P43219 (whole entry, looked up): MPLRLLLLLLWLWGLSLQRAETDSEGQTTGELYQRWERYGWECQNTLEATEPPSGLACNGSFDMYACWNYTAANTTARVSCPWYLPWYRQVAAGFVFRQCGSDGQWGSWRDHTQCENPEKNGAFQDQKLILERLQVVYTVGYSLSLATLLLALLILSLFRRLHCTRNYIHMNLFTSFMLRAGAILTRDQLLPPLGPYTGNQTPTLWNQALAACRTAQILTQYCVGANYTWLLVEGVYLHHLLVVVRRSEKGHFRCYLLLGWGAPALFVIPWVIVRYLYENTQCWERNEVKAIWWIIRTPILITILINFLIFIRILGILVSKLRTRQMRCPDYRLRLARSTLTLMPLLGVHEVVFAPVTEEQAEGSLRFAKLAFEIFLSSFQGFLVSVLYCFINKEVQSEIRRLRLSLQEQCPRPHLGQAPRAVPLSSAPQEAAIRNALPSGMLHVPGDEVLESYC
Sequence of UniProt P83916 (whole entry, looked up): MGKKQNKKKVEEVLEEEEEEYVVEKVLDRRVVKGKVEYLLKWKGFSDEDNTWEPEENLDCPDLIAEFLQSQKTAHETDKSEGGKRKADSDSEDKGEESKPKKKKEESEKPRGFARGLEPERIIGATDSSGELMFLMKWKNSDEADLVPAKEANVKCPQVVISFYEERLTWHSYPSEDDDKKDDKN

Compound | target | test | test system | conditions | how to read | endpoint | value
CNS(=O)(=O)Nc1cccc(-n2c(=O)n(C3CC3)c(=O)c3c(Nc4ccc(I)cc4F)n(C)c(=O)c(C)c32)c1 | MAP2K1 (Homo sapiens, UniProt Q02750) | substrate phosphorylation, inhibitor |  | 1 µM |  | outcome | inhibited
CCN(CCCC[C@H](NC(=O)[C@H](Cc1ccc(OC)c(OC)c1)NC(=O)[C@H](C)NC(=O)[C@H](CC1CCCCC1)NC(=O)c1ccc(Br)c(N)c1)C(=O)N[C@@H](CO)C(=O)OC)C(C)C | Chromobox protein homolog 1 (Homo sapiens, UniProt P83916) | binding, item: CBX1 | HEK-293T cell lysate | concentration not given |  | competition of probe pulldown | inhibited
O=C1Nc2ccc(Br)cc2/C1=N/N=C/c1cccc(OCc2ccccc2)c1 | MAOA (Homo sapiens, UniProt P21397) | enzyme activity, inhibitor |  | 10 µM |  | remaining activity | 81.5%
OC[C@H]1O[C@@H](OCc2cn([C@@H]3O[C@H](CO)[C@@H](n4cc(-c5ccc(-c6cn([C@H]7[C@H](O)[C@@H](O)[C@H](n8cc(CO[C@@H]9O[C@H](CO)[C@H](O)[C@H](O)[C@H]9O)nn8)O[C@@H]7CO)nn6)cc5)nn4)[C@H](O)[C@H]3O)nn2)[C@H](O)[C@@H](O)[C@H]1O | lecA | isothermal titration calorimetry |  | 298 K |  | -TΔS | 12 ± 1.8 kcal/mol
CC[C@H](C)[C@H](NC(=O)[C@H](CO)NC(=O)[C@H](Cc1ccc(O)cc1)NC(=O)[C@H](CC(=O)O)NC(=O)[C@H](CO)NC(=O)[C@@H](NC(=O)[C@H](Cc1ccccc1)NC(=O)[C@@H](NC(=O)CNC(=O)[C@@H]1CCCN1C(=O)[C@H](C)NC(=O)[C@@H](N)Cc1ccc(O)cc1)[C@@H](C)O)[C@@H](C)CC)C(=O)N[C@@H](C)C(=O)N[C@@H](CCSC)C(=O)N[C@@H](CC(=O)O)C(=O)N[C@@H](CCCCN)C(=O)N[C@H](C(=O)N[C@@H](CCCNC(=N)N)C(=O)N[C@@H](CCC(N)=O)C(=O)N[C@@H](CCC(N)=O)C(=O)N[C@@H](CC(=O)O)C(=O)N[C@@H](Cc1ccccc1)C(=O)N[C@H](C(=O)N[C@@H](CC(N)=O)C(=O)N[C@@H](Cc1c[nH]c2ccccc12)C(=O)N[C@@H](CC(C)C)C(=O)N[C@@H](CC(C)C)C(=O)N[C@@H](C)C(=O)N[C@@H](CCC(N)=O)C(=O)N[C@@H](CCCNC(=N)N)C(=O)NCC(=O)N[C@@H](CCCCN)C(=O)N[C@@H](CCCCN)C(=O)N[C@@H](CO)C(=O)N[C@@H](CC(=O)O)C(=O)N[C@@H](Cc1c[nH]c2ccccc12)C(=O)N[C@@H](CCCCN)C(=O)N[C@@H](Cc1c[nH]cn1)C(=O)N[C@@H](CC(N)=O)C(=O)N[C@H](C(=O)N[C@H](C(=O)N[C@@H](CCC(N)=O)C(=O)O)[C@@H](C)O)[C@@H](C)CC)C(C)C)[C@@H](C)CC | Gastric inhibitory polypeptide receptor (Rattus norvegicus, UniProt P43219) | cAMP, agonist | COS-7 |  |  | Emax | 61%
CCC1(CC)C(=O)N(c2cccc(CN3CCN(C)CC3)c2)C1=O | DPP9 (Homo sapiens, UniProt Q86TI2) | inhibitor, Morrison equation |  |  |  | Ki | inactive
CC[C@H](C)[C@H](NC(=O)[C@@H]1CSSC[C@H](NC(=O)[C@@H](NC(C)=O)[C@@H](C)CC)C(=O)N[C@@H](C(C)C)C(=O)N[C@@H](Cc2cn(C)c3ccccc23)C(=O)N[C@@H](CCC(N)=O)C(=O)N[C@@H](CC(=O)O)C(=O)N[C@@H](Cc2c[nH]c3ccccc23)C(=O)NCC(=O)N[C@@H](C)C(=O)N[C@@H](Cc2c[nH]cn2)C(=O)N[C@@H](CCCNC(=N)N)C(=O)N1)C(N)=O | Complement C3 | ITC |  | concentration not given |  | ΔG of binding | -10.9 kcal/mol
CC[C@H](C)[C@H](NC(=O)[C@H](CCCNC(=N)N)NC(=O)NC[C@H](CCC(N)=O)NC(=O)NC[C@@H](NC(=O)NC[C@H](CCCNC(=N)N)NC(=O)NC[C@H](Cc1ccc2ccccc2c1)NC(=O)[C@H](CCCCN)NC(=O)[C@H](CCC(=O)O)NC(C)=O)C(c1ccccc1)c1ccccc1)C(=O)N[C@@H](C)C(N)=O | Histone chaperone ASF1A | isothermal titration calorimetry |  | pH 7.5, 20 °C |  | -TΔS | -3 ± 0.5 kcal/mol
Nc1ncnc2c1ncn2[C@H]1C[C@H](O)[C@@H](COP(=O)(O)OP(=O)(O)[C@H](F)P(=O)(O)O)O1 | DNA polymerase eta (POLH, Homo sapiens, UniProt Q9Y253) | dNTP incorporation, single-turnover kinetics |  | W sequence, A·T pair | reference: non-enzymatic LFER line | delta effective pKa4 | -0.7 pK units
CC1=C(/C=C/C(C)=C/C=C/C(C)=C/C=O)C(C)(C)CCC1 | CNGA1 (Bos taurus, UniProt Q00194) | ion current, inhibitor, patch clamp |  | 200 nM, holding potential +50 mV, together with: cGMP 2 mM |  | fast time constant of inhibition | 206 s
CC(=O)N[C@H]1NC[C@H](C(=O)O)[C@H](O)[C@@H]1O | Sialidase-2 (Homo sapiens, UniProt Q9Y3R4) | α2,3-sialyllactose hydrolysis |  | 600 µM, 1 h, pH 4.0, together with: α2,3-sialyllactose |  | released sialic acid | 277 µmol
O=C1C=CC2(c3coc4cc(O)ccc4c3=O)c3cc(-c4coc5cc(O)ccc5c4=O)ccc3OC2C1 (centres unmarked) | laccase (Trametes versicolor) | substrate |  | product formation |  | Km | 431 ± 32 µM
Oc1c(C(Nc2nc3ccccc3s2)c2cccc(OCc3ccccc3)c2)ccc2cccnc12 (centres unmarked) | Genome polyprotein, NS2B-NS3 protease (Dengue virus type 2, UniProt P14340) | substrate, tetrapeptide cleavage |  | 3 µM, 37 °C, together with: 40 µM ZnCl2 |  | kcat | 0.0956 ± 0.0022 s⁻¹
COC(=O)[C@@]1(C)C=C(C(=O)Nc2cccc(C(=O)Nc3ccc(Nc4nccc(-c5cccnc5)n4)c(C)c3)c2)C(=O)CC1 | MAPK8 (Homo sapiens, UniProt P45983) | binding, SPR |  | 15, 40, 70 nM, parallel kinetic model |  | k3 | 0.0245 s⁻¹
OC(c1cccc(C2=CCCNC2)n1)C(F)(F)F (centres unmarked) | HTR2B (Homo sapiens, UniProt P41595) | β-arrestin recruitment, agonist |  |  |  | Emax | 71.1%
CC[C@H](C)[C@H](NC(=O)[C@H](CCCNC(=N)N)NC(=O)NC[C@H](CCC(N)=O)NC(=O)NC[C@H](CC(C)C)NC(=O)NC[C@H](CCCNC(=N)N)NC(=O)NC[C@H](CCc1ccccc1)NC(=O)[C@H](CCCCN)NC(=O)[C@H](CCC(=O)O)NC(C)=O)C(=O)N[C@@H](C)C(N)=O | Histone chaperone ASF1A | isothermal titration calorimetry |  | concentration not given, pH 7.5, 20 °C |  | binding enthalpy | -3.3 ± 0.1 kcal/mol
O=C(COc1ccccc1)N[C@@H](Cc1cn(CCNC(=O)c2ccc(S[C@@H]3O[C@H](CO)[C@H](O)[C@H](O)[C@H]3O)cc2)nn1)C(=O)NCCO | lecA | binding, isothermal titration calorimetry |  | 25 °C |  | −TΔS | 4.13 ± 0.359 kcal/mol
CC(C)(C)CCN1C[C@@H]2[C@@H](CNC(=O)c3cc(Cl)cc(Cl)c3)[C@@H]2C1.Cl | Voltage-dependent L-type calcium channel subunit alpha-1F (Homo sapiens, UniProt O60840) | calcium current, whole-cell patch clamp | HEK-293T cells | 5 µM, holding potential -90 mV, together with: β2 and α2δ subunits |  | reversal potential | 53.4 ± 2.76 mV
N=C(N)NCCC[C@H](NC(=O)[C@@H]1CCCN1C(=O)[C@@H]1CCCN1C(=O)[C@H](CCCNC(=N)N)NC(=O)[C@H](CCC(=O)O)NC(=O)CNC(=O)[C@@H](N)CCCNC(=N)N)C(N)=O | Neuropilin-1 (NRP1, Homo sapiens, UniProt O14786) | SPR |  |  |  | binding free energy ΔG | -8.5 kcal/mol
CC(=O)N[C@@H](Cc1c[nH]c2ccccc12)C(=O)N[C@@H](Cc1c[nH]c2ccccc12)C(=O)N[C@@H](Cc1c[nH]c2ccccc12)C(=O)N[C@@H](Cc1c[nH]c2ccccc12)C(=O)N[C@@H](Cc1c[nH]c2ccccc12)C(=O)N[C@@H](Cc1c[nH]c2ccccc12)C(=O)N[C@@H](Cc1c[nH]c2ccccc12)C(=O)NCCCC[C@@H]1NC(=O)[C@H](CCCNC(=N)N)NC(=O)[C@H](CCCNC(=N)N)NC(=O)[C@H](CCCNC(=N)N)NC(=O)[C@H](CCCNC(=N)N)NC(=O)[C@H](CCCNC(=N)N)NC1=O | MTOR (Homo sapiens, UniProt P42345) | enzyme activity, inhibitor |  | 5 µM |  | remaining activity | 112%
C[C@]12CC[C@H]3[C@@H](CCC4=CC(=O)CC[C@@]43C)[C@@H]1CC[C@@H]2C(=O)CO | CYP11B2 (Homo sapiens, UniProt P19099) | substrate |  |  | reference: CYP11B2:adrenodoxin 1:10 over 1:1 | kcat increase | 2 fold
O=C(O)c1cnccc1C(F)(F)F | Nicotinamidase (Drosophila melanogaster, UniProt Q9VDU7) | GDH-coupled |  | 100 µM |  | enzyme activity | no effect
Nc1ncnc2c1ncn2[C@@H]1O[C@H](CO)[C@@H](O[C@H]2O[C@H](CO)[C@@H](OP(=O)(O)O)[C@H](OP(=O)(O)O)[C@H]2O)[C@H]1O | Inositol 1,4,5-trisphosphate-gated calcium channel ITPR1, IP3-binding core (Itpr1, Rattus norvegicus, UniProt P29994) | binding, 3H-IP3 competition |  | IP3-binding core IBC |  | Hill coefficient | 0.8 ± 0.1
CCOc1ccc(C[C@@H]2NC(=O)[C@H](C(C)C)NC(=O)[C@@H](NC(=O)[C@@H](NC(C)=O)[C@@H](C)CC)CSSC[C@@H](C(=O)N[C@H](C(N)=O)[C@@H](C)O)NC(=O)[C@H](CCCNC(=N)N)NC(=O)[C@H](Cc3c[nH]cn3)NC(=O)[C@H](C)NC(=O)CNC(=O)[C@H](Cc3c[nH]c4ccccc34)NC(=O)[C@H](CC(=O)O)NC(=O)[C@H](CCC(N)=O)NC2=O)cc1 | Complement C3 | ITC |  | 25 °C | more negative = stronger binding | ΔG | -9.5 kcal/mol
O=C(CCC1CO1)Oc1ccc([N+](=O)[O-])cc1 (racemic) | Epoxide hydrolase 1 (Ephx1, Rattus norvegicus, UniProt P07687) | substrate, absorbance |  | 50 µM, pH 9.0, 37 °C, rat enzyme |  | signal to noise ratio | > 40
CCCC[C@H](NC(=O)[C@@H]1CSSC[C@H](NC(=O)[C@@H](NC(C)=O)[C@@H](C)CC)C(=O)N[C@@H](C(C)C)C(=O)N[C@@H](Cc2cn(C)c3ccccc23)C(=O)N[C@@H](CCC(N)=O)C(=O)N[C@@H](CC(=O)O)C(=O)N[C@@H](Cc2c[nH]c3ccccc23)C(=O)N(C)CC(=O)N[C@@H](C)C(=O)N[C@@H](Cc2c[nH]cn2)C(=O)N[C@@H](CCCNC(=N)N)C(=O)N1)C(N)=O | Complement C3 C3b fragment | SPR |  | 25 °C | reference: [Trp(Me)4]-Ac-compstatin | relative association rate constant | 1.5
[3H]C([3H])([3H])c1cnccc1CN1C[C@@H](c2cc(F)c(F)c(F)c2)CC1=O | SV2A (Homo sapiens, UniProt Q7L0J3) | radioligand binding | human control, frontal cortex |  | reference: P1 over P2 fraction | specific binding ratio | ~1.4 fold
CC[C@H](C)[C@H](NC(C)=O)C(=O)N[C@H]1CSSC[C@@H](C(=O)N[C@H](C(N)=O)[C@@H](C)O)NC(=O)[C@H](CCCNC(=N)N)NC(=O)[C@H](Cc2c[nH]cn2)NC(=O)[C@H](C)NC(=O)CNC(=O)[C@H](Cc2c[nH]c3ccccc23)NC(=O)[C@H](CC(=O)O)NC(=O)[C@H](CCC(N)=O)NC(=O)[C@H](Cc2ccc(O)cc2)NC(=O)[C@H](C(C)C)NC1=O | Complement C3 C3b fragment | SPR |  | pH 7.4, 25 °C |  | koff | 0.151 ± 0.022 s⁻¹
CC1(C)CCN(Cc2ccc(C(=O)NC[C@]3(O)CCCN(c4cc(NCc5ccccc5)ncn4)C3)c(O)c2)CC1 | PDGFRA (Homo sapiens, UniProt P16234) | kinase activity, radiometric |  | 10 µM, together with: 10 µM ATP |  | remaining activity | 88%

Repeated from above:
Compound | target | test | test system | conditions | how to read | endpoint | value
Nc1ncnc2c1ncn2[C@@H]1O[C@H](CO)[C@@H](O[C@H]2O[C@H](CO)[C@@H](OP(=O)(O)O)[C@H](OP(=O)(O)O)[C@H]2O)[C@H]1O | Inositol 1,4,5-trisphosphate-gated calcium channel ITPR1, IP3-binding core (Itpr1, Rattus norvegicus, UniProt P29994) | binding, 3H-IP3 competition |  | IP3-binding core IBC |  | Hill coefficient | 0.8 ± 0.1
CC1=C(/C=C/C(C)=C/C=C/C(C)=C/C=O)C(C)(C)CCC1 | CNGA1 (Bos taurus, UniProt Q00194) | ion current, inhibitor, patch clamp |  | 200 nM, holding potential +50 mV, together with: cGMP 2 mM |  | fast time constant of inhibition | 206 s
